Measurements gathered from unrelated publications.
Each line is one published result; not all experiments were run side by side. “And” joins repeats or separate records; there may be more than shown. Numbers after ± are the reported error.

SMILES	target or system	test	system	setting	scale	measurement	value
NC[C@@H](C(=O)Nc1ccc(-c2cn[nH]c2)cc1)c1ccccc1		tonometry	Macaca cyclopis, ocular normotensive	ocular, 0.03%, 72 h		IOP	18.8 mmHg
O=C(N/N=C/c1ccc(C[n+]2ccccc2)cc1)c1cncc(C(=O)N/N=C/c2ccc(C[n+]3ccccc3)cc2)n1	22CTA telomeric G4-DNA antiparallel	FRET melting		1 µM, K10 buffer, DNA 0.2 µM, together with: ds26 10 µM		ΔTm	11.8 ± 0.6 °C
COC1OC(C)C(OC2OC(C)C(O)C(OC3OC(C)C(OC4OC(C)C(O)C(OC5OC(C)C(OC6OC(C)C(O)C(OS(=O)(=O)O)C6OS(=O)(=O)O)C(OS(=O)(=O)O)C5OS(=O)(=O)O)C4OS(=O)(=O)O)C(OS(=O)(=O)O)C3OS(=O)(=O)O)C2OS(=O)(=O)O)C(OS(=O)(=O)O)C1OS(=O)(=O)O (stereo not shown)			human plasma	64 µg/mL		activated partial thromboplastin time	76.5 s and 73.8 s and 69 s
COC1CN([C@H]2CC[C@H]([C@@]3(C)Oc4c(Cl)cc(C(=O)NCc5c(SC)cc(C)[nH]c5=O)c(C)c4O3)CC2)C1		RNA-seq, measured: PALM	human cancer patients, whole blood	dose not given, 24 h, PRC2 target gene	reference: pretreatment sample	log2 fold change	4.84
COC1OC(C)C(OC2OC(C)C(OS(=O)(=O)O)C(OC3OC(C)C(OC4OC(C)C(OS(=O)(=O)O)C(OC5OC(C)C(OC6OC(C)C(OS(=O)(=O)O)C(OC7OC(C)C(OS(=O)(=O)O)C(OS(=O)(=O)O)C7O)C6O)C(OS(=O)(=O)O)C5O)C4O)C(OS(=O)(=O)O)C3O)C2O)C(OS(=O)(=O)O)C1O (stereo not shown)			human plasma	128 µg/mL		activated partial thromboplastin time	36.4 ± 0.4 s
O=C(Nc1ccc([C@H]2[C@@H](F)[C@@H](F)C[C@@H](F)[C@H]2F)cc1)C1CC1(F)F (stereo partly shown)		liver microsome stability	cynomolgus liver microsomes	1 µM		hepatic clearance	4.9 mL/min/kg
O=C(N/N=C/c1ccc2c(ccc[n+]2Cc2ccccc2)c1)c1cncc(C(=O)N/N=C/c2ccc3c(ccc[n+]3Cc3ccccc3)c2)n1	22CTA telomeric G4-DNA antiparallel	FRET melting		1 µM, K10 buffer, DNA 0.2 µM, together with: ds26 10 µM		ΔTm	16.4 ± 0.4 °C
CC(=O)Nc1ccc([C@H]2[C@@H](F)[C@@H](F)C[C@@H](F)[C@H]2F)cc1		hepatocyte stability	cryopreserved human hepatocytes	1 µM		hepatic clearance	11 mL/min/kg
COCC1CN(C2CCN(c3cc(OC)c(Nc4ncc(Br)c(Nc5ccc6c(c5P(C)(C)=O)OCCO6)n4)cc3C)CC2)C1		RECIST 1.1	advanced EGFR-mutant NSCLC patients	150 mg once daily		not evaluable patients	0%
COc1cc(O)ccc1CCC(c1ccc(O)cc1)c1cc2c(c(C)c1O)OC(c1ccc(O)cc1)CC2 (mixture of isomers)		measured: 12-HEPE	human whole blood	10 µM, together with: A23187		amount	168 ± 48 pg/mL blood
N[C@@H](CNC(=O)N[C@@H](CS)C(=O)NCC(=O)O)C(=O)O		ELISA	mouse C57BL/6, Aβ i.c.v. model, brain lysate	intranasal, dose not given		IL-6 level	16.2 ± 1.3 pg/mg protein
Cc1[nH]nc2c1N=C(c1ccccc1Cl)c1cnc(N3CCOCC3)cc1N2			mouse sample A TNBC PDX, sample B subtype	oral, 15 mg/kg, 5 days per week		tumour growth inhibition	90%
COC1OC(C)C(OS(=O)(=O)O)C(OC2OC(C)C(OS(=O)(=O)O)C(OC3OC(C)C(OS(=O)(=O)O)C(OC4OC(C)C(OS(=O)(=O)O)C(OC5OC(C)C(OS(=O)(=O)O)C(OC6OC(C)C(OS(=O)(=O)O)C(OC7OC(C)C(OS(=O)(=O)O)C(OC8OC(C)C(OS(=O)(=O)O)C(OS(=O)(=O)O)C8OS(=O)(=O)O)C7OS(=O)(=O)O)C6OS(=O)(=O)O)C5OS(=O)(=O)O)C4OS(=O)(=O)O)C3OS(=O)(=O)O)C2OS(=O)(=O)O)C1OS(=O)(=O)O (stereo not shown)			human plasma	32 µg/mL		activated partial thromboplastin time	119 s and 117 s and 113 s

For quick reference, copied from above:
SMILES	target or system	test	system	setting	scale	measurement	value
COC1OC(C)C(OS(=O)(=O)O)C(OC2OC(C)C(OS(=O)(=O)O)C(OC3OC(C)C(OS(=O)(=O)O)C(OC4OC(C)C(OS(=O)(=O)O)C(OC5OC(C)C(OS(=O)(=O)O)C(OC6OC(C)C(OS(=O)(=O)O)C(OC7OC(C)C(OS(=O)(=O)O)C(OC8OC(C)C(OS(=O)(=O)O)C(OS(=O)(=O)O)C8OS(=O)(=O)O)C7OS(=O)(=O)O)C6OS(=O)(=O)O)C5OS(=O)(=O)O)C4OS(=O)(=O)O)C3OS(=O)(=O)O)C2OS(=O)(=O)O)C1OS(=O)(=O)O (stereo not shown)			human plasma	32 µg/mL		activated partial thromboplastin time	119 s and 117 s and 113 s
